# Assay results pooled from the literature.
SMILES,target or system,test,test system,conditions,how to read,measurement,value
Cn1cc(-c2ccc(-c3cncc(Cl)c3N3CCC4(CCNC4=O)CC3)cc2)cn1,COLO 205,"gene expression, microarray, item: GDF15 (PDF) mRNA",,"concentration not given, 2 h",reference: untreated cells,log2 fold change,2.15
Oc1ccccc1-c1n[nH]cc1-c1ccnc2ccccc12,CAK1 (Candida albicans),"kinase binding, MIB/MS competition",Candida albicans lysate,10 µM,reference: DMSO,log2 fold change,0.29
O=c1[nH]c2ncsc2c(=O)n1O,Brassica rapa,,,"10 mg/mL, 72 h",,root length inhibition,94%
CC(C)NCC(O)c1ccc(O)c(O)c1 (stereo not drawn),,,"ventricular cardiomyocytes, C57BL/6 mouse","dose not given, 0.408 s",,sarcomere length,1.72 µm
c1coc(-c2n[nH]cc2-c2ccnc3ccccc23)c1,CDC5 (Candida albicans),"kinase binding, MIB/MS competition",Candida albicans lysate,1 µM,reference: DMSO,log2 fold change,-0.05
CC(=O)NC[C@H]1CN(c2ccc(N3CCOCC3)c(F)c2)C(=O)O1,Streptococcus pneumoniae,,"penicillin-resistant, 10 isolates",serum 75%,,MIC50,4 µg/mL
OC(CCN1CCCCC1)(c1ccccc1)C1CC2C=CC1C2 (stereo not drawn),,resting-state EEG,healthy elderly humans,"oral, 4 mg, eyes open, LS mean",reference: baseline,"change, EEG Alpha power, in O1-Pz",-7.8%
CN[C@H](CC(C)C)C(=O)N[C@H]1C(=O)N[C@@H](CC(N)=O)C(=O)N[C@H]2C(=O)N[C@H]3C(=O)N[C@H](C(=O)N[C@H](C(=O)O)c4cc(O)cc(O)c4-c4cc3ccc4O)[C@H](O)c3ccc(c(Cl)c3)Oc3cc2cc(c3O[C@@H]2O[C@H](CO)[C@@H](O)[C@H](O)[C@H]2O[C@H]2C[C@](C)(N)[C@H](O)[C@H](C)O2)Oc2ccc(cc2Cl)[C@H]1O,Staphylococcus aureus,,MRSA,10 isolates,,MIC50,0.5 µg/mL
CC(=O)N(C)[C@H]1CCN(C(=O)c2cnc3c(c2)C[C@](C)(c2ccc(F)cc2)N3)C1,vanin activity,,"human, whole blood ex vivo stimulated","30 mg, 1 h post-dose",reference: baseline,pantothenic acid level,13.5%
